Measured values of several laboratories.
Each line is one published result; not all experiments were run side by side. ± marks the error that the study gave.

SMILES	tested on	test	test system	conditions	how to read	endpoint	value
COc1cccc2c1C(=O)c1c(O)c3c(c(O)c1C2=O)CC(O)(C(=O)CO)CC3OC1CC(NC(=O)C[C@H](N)C(=O)O)C(O)C(C)O1 (stereo partly drawn)	P-glycoprotein (MDR1)		MDCK-MDR1	50 µg/mL, 60 min		Papp (A-B)	0.67 ± 0.045 ×10⁻⁶ cm/s
N=C(N)NCCC[C@@H]1NC(=O)[C@H](Cc2c[nH]c3ccccc23)NC(=O)[C@@H](CC2CCCCC2)NC(=O)[C@@H]2CCCN2C(=O)[C@@H](NC(=O)CCc2ccccc2)CCCNC1=O		two-compartment model	C57BL/6J mice, plasma	oral, 1 mg/kg		alpha rate constant	0.03 min⁻¹
[64Cu+2].c1cnc(CNCc2ccc(CN3CCCN4CCNCCCN(CC4)CC3)cc2)nc1	CXCR4		NOD/SCID mouse, U87 and U87-stb-CXCR4 xenografts, liver	iv, 120 min, ex vivo		tissue uptake	91 ± 16.8 %ID/g
N=C(N)NCCC[C@@H]1NC(=O)[C@H](CCCCNC(=O)CNC(=O)CNC(=O)CNC(=O)CC[C@H](NC(=O)CNC(=O)CNC(=O)CNC(=O)CC[C@H](NC(=O)CN2CCN(CC(=O)O)CCN(CC(=O)O)CCN(CC(=O)O)CC2)C(=O)NCC(=O)NCC(=O)NCC(=O)N[C@@H](CCC(=O)NCC(=O)NCC(=O)NCC(=O)NCCCC[C@@H]2NC(=O)[C@@H](Cc3ccccc3)NC(=O)[C@H](CC(=O)O)NC(=O)CNC(=O)[C@H](CCCNC(=N)N)NC2=O)C(=O)NCC(=O)NCC(=O)NCC(=O)NCCCC[C@@H]2NC(=O)[C@@H](Cc3ccccc3)NC(=O)[C@H](CC(=O)O)NC(=O)CNC(=O)[C@H](CCCNC(=N)N)NC2=O)C(=O)NCC(=O)NCC(=O)NCC(=O)NCCCC[C@@H]2NC(=O)[C@@H](Cc3ccccc3)NC(=O)[C@H](CC(=O)O)NC(=O)CNC(=O)[C@H](CCCNC(=N)N)NC2=O)NC(=O)[C@@H](Cc2ccccc2)NC(=O)[C@H](CC(=O)O)NC(=O)CNC1=O [indium-111 labelled]			female athymic nu/nu mice, heart	intravenous, 72 h		tissue uptake	0.51 ± 0.16 %ID/g
COc1ccc2cc(-c3ccc(-c4ccc(C)cn4)nc3)oc2c1	zinc(II)		neutral aqueous solution	zinc saturation	reference: zinc-free ligand, positive = red shift	emission wavelength shift	46 nm
NC(=S)N/N=C/c1ccccn1	Mn2+ complex	potentiometric titration		25 °C		log stability constant	17.6
[64Cu+2].c1ccc(CNCc2ccc(CN3CCCN4CCNCCCN(CC4)CC3)cc2)nc1	CXCR4		NOD/SCID mouse, U87 and U87-stb-CXCR4 xenografts, blood	iv, 480 min, ex vivo		tissue uptake	1.82 ± 0.26 %ID/g
O=C(O)[C@@H]1C[C@@H](O)CN1C(=O)[C@@H]1CCCN1	iron(III) ion	complex formation, from log β	aqueous 0.15 M NaCl	40 °C, MA2 complex species		−ΔG	33.9 kcal/mol
N#CCc1cccc(Cl)c1-c1ccc2[nH][11c](=O)[nH]c2c1	P-glycoprotein and Bcrp	ex vivo brain uptake	mouse	injection, 30 min, added: tariquidar	reference: without tariquidar	brain-to-blood ratio increase	206%
N=C(N)NCCC[C@@H]1NC(=O)[C@H](CCCCNC(=O)CC[C@H](NC(=O)CC[C@H](NC(=O)CN2CCN(CC(=O)O)CCN(CC(=O)O)CCN(CC(=O)O)CC2)C(=O)N[C@@H](CCC(=O)NCCCC[C@@H]2NC(=O)[C@@H](Cc3ccccc3)NC(=O)[C@H](CC(=O)O)NC(=O)CNC(=O)[C@H](CCCNC(=N)N)NC2=O)C(=O)NCCCC[C@@H]2NC(=O)[C@@H](Cc3ccccc3)NC(=O)[C@H](CC(=O)O)NC(=O)CNC(=O)[C@H](CCCNC(=N)N)NC2=O)C(=O)NCCCC[C@@H]2NC(=O)[C@@H](Cc3ccccc3)NC(=O)[C@H](CC(=O)O)NC(=O)CNC(=O)[C@H](CCCNC(=N)N)NC2=O)NC(=O)[C@@H](Cc2ccccc2)NC(=O)[C@H](CC(=O)O)NC(=O)CNC1=O [indium-111 labelled]			female athymic nu/nu mice, brain	intravenous, 72 h		tissue uptake	0.14 ± 0.07 %ID/g
NC(=S)N/N=C/c1cc(Cl)ccc1O	Mn2+ complex	potentiometric titration		25 °C		log stability constant	16.6
Cn1c(=O)oc2ccc(-c3ccc(CC(C#N)NC(=O)C4CNCCCO4)c(F)c3)cc21 (stereo not drawn)			human	oral, 20 mg once daily, TEAE, multiple ascending dose		bilirubin increased incidence	0%

A few entries again:
SMILES	tested on	test	test system	conditions	how to read	endpoint	value
[64Cu+2].c1cnc(CNCc2ccc(CN3CCCN4CCNCCCN(CC4)CC3)cc2)nc1	CXCR4		NOD/SCID mouse, U87 and U87-stb-CXCR4 xenografts, liver	iv, 120 min, ex vivo		tissue uptake	91 ± 16.8 %ID/g
